Measured values of several laboratories.
Lines come from different studies, so protocols differ. ± gives the spread as reported.

N=C(N)NCCC[C@H](NC(=O)[C@@H]1CSSC[C@H](NC(=O)[C@H](Cc2ccc3ccccc3c2)NC(=O)[C@H](CCCNC(=N)N)NC(=O)[C@H](CCCNC(=N)N)NC(=S)Nc2ccc(C[C@H]3CN(CC(=O)O)CCN(CC(=O)O)CCN3CC(=O)O)cc2)C(=O)N[C@@H](Cc2ccc(O)cc2)C(=O)N[C@@H](CCCNC(N)=O)C(=O)N[C@@H](CCCCN)C(=O)N[C@H](CCCCN)C(=O)N2CCC[C@H]2C(=O)N[C@@H](Cc2ccc(O)cc2)C(=O)N[C@@H](CCCNC(=N)N)C(=O)N[C@@H](CCCNC(N)=O)C(=O)N1)C(N)=O [copper-64 labelled]
tissue uptake (female athymic nude mice, CHO-CXCR4 tumour xenograft; intravenous, 50 µCi, 4 h): 4.55 ± 0.66 %ID/g

Cc1ccc2c(=O)n(-c3ccc([18F])cc3)c(CCN3C(=O)c4cccc(OC(C)C)c4C3=O)nc2c1
tissue uptake (ICR mice, male, kidney, liver, small intestine; intravenous, 50 µCi): > 10 %ID/g

O=C([O-])c1cccc(CN(CCN(Cc2cn(Cc3ccccc3)nn2)Cc2cccc(C(=O)[O-])n2)Cc2cn(Cc3ccccc3)nn2)n1.[64Cu+2]
tissue uptake (healthy athymic nude mice, heart; intravenous, 15 min): 2.12 %ID/g

CCCC[C@H](NC(=O)CNC(=O)CNC(=O)CN1CCN(CC(=O)O)CCN(CC(=O)O)CCN(CC(=O)O)CC1)C(=O)N[C@H]1CC(=O)NCCCC[C@@H](C(N)=O)NC(=O)[C@H](Cc2c[nH]c3ccccc23)NC(=O)[C@H](CCCNC(=N)N)NC(=O)[C@@H](Cc2ccccc2)NC(=O)[C@H](Cc2c[nH]cn2)NC1=O [lead-203 labelled]
tissue uptake (C57 mice with metastatic melanoma, lung; intravenous, 0.056 MBq, 24 h): 3.9 ± 0.18 %ID/g

CC(F)C(=O)NC[C@@H]1O[C@H](C(=O)N[C@@H](CCC(=O)NCCCC[C@@H]2NC(=O)[C@@H](Cc3ccc(O)cc3)NC(=O)[C@H](CC(=O)O)NC(=O)CNC(=O)[C@H](CCCNC(=N)N)NC2=O)C(=O)NCCCC[C@@H]2NC(=O)[C@@H](Cc3ccc(O)cc3)NC(=O)[C@H](CC(=O)O)NC(=O)CNC(=O)[C@H](CCCNC(=N)N)NC2=O)[C@H](O)[C@H](O)[C@H]1O (stereo partly drawn) [fluorine-18 labelled]
tissue uptake (small-animal PET; female athymic nude mice, U-87 MG xenograft, liver; intravenous, 3.7 MBq, 120 min): 0.25 ± 0.05 %ID/g

CCCC[C@H](NC(=O)CNC(=O)CNC(=O)CN1CCN(CC(=O)O)CCN(CC(=O)O)CCN(CC(=O)O)CC1)C(=O)N[C@H]1CC(=O)NCCCC[C@@H](C(N)=O)NC(=O)[C@H](Cc2c[nH]c3ccccc23)NC(=O)[C@H](CCCNC(=N)N)NC(=O)[C@@H](Cc2ccccc2)NC(=O)[C@H](Cc2c[nH]cn2)NC1=O [gallium-67 labelled]
tissue uptake (female C57 mice, B16/F1 melanoma, skin; intravenous, 0.037 MBq, 0.5 h): 5.31 ± 2.35 %ID/g

CC(F)C(=O)NCCOCCOCCOCC(=O)N[C@@H](CCC(=O)NCCCC[C@@H]1NC(=O)[C@@H](Cc2ccc(O)cc2)NC(=O)[C@H](CC(=O)O)NC(=O)CNC(=O)[C@H](CCCNC(=N)N)NC1=O)C(=O)NCCCC[C@@H]1NC(=O)[C@@H](Cc2ccc(O)cc2)NC(=O)[C@H](CC(=O)O)NC(=O)CNC(=O)[C@H](CCCNC(=N)N)NC1=O (stereo partly drawn) [fluorine-18 labelled]
tissue uptake (small-animal PET; female athymic nude mice, U-87 MG xenograft, muscle; intravenous, 3.7 MBq, 60 min): 0.31 ± 0.05 %ID/g

CC(C)[C@H](NC(=O)[C@@H]1CCCN1C(=O)[C@H](CCCNC(=N)N)NC(=O)[C@H](CS)NC(=O)[C@H](Cc1c[nH]c2ccccc12)NC(=O)[C@H](CCCNC(=N)N)NC(=O)[C@@H](Cc1ccccc1)NC(=O)[C@H](Cc1c[nH]cn1)NC(=O)[C@H](CCC(=O)O)NC(=O)[C@H](CS)NC(=O)[C@H](CS)NC(=O)COCCOCCNC(=O)[C@@H]1CC(=O)N[C@@H](CCCNC(=N)N)C(=O)NCC(=O)N[C@@H](CC(=O)O)C(=O)N[C@H](Cc2ccc(O)cc2)C(=O)N1)C(N)=O [technetium-99m labelled]
tissue uptake (nude mice, M21 melanoma xenograft, blood; intravenous, 0.037 MBq, 2 h): 1.52 ± 0.01 %ID/g

O=C([O-])CN1CCN(CC(=O)[O-])CCN(CC(=O)[O-])CCN(CC(=O)[O-])CC1.[64Cu+2]
tissue uptake (nude athymic mice, healthy, femur; intravenous, 24 h, 64Cu label): 0.27 %ID/g

N=C(N)NCCC[C@@H]1NC(=O)[C@H](CCCCNC(=O)CC[C@H](NC(=O)[C@H]2O[C@@H](CNC(=O)c3ccc(F)cc3)[C@H](O)[C@@H](O)[C@H]2O)C(=O)NCCCC[C@@H]2NC(=O)[C@@H](Cc3ccc(O)cc3)NC(=O)[C@H](CC(=O)O)NC(=O)CNC(=O)[C@H](CCCNC(=N)N)NC2=O)NC(=O)[C@@H](Cc2ccc(O)cc2)NC(=O)[C@H](CC(=O)O)NC(=O)CNC1=O [fluorine-18 labelled]
tissue uptake (small-animal PET; female athymic nude mice, U-87 MG xenograft, muscle; intravenous, 3.7 MBq, 60 min): 0.37 ± 0.06 %ID/g

NC12CNCCNCC(NCc3ccc(CNC(=O)CCCC(=O)NCc4ccc(-c5nncnn5)cc4)cc3)(CNCCNC1)CNCCNC2.[64Cu+2]
tissue uptake (athymic nude mice SW1222 xenograft, heart; 1 h post injection, 24 h accumulation interval, together with: huA33-TCO pretargeting): 1.81 ± 0.46 %ID/g

N=C(N)NCCC[C@H](NC(=O)[C@@H]1CSSC[C@H](NC(=O)[C@H](Cc2ccc3ccccc3c2)NC(=O)[C@H](CCCNC(=N)N)NC(=O)[C@H](CCCNC(=N)N)NC(=O)CN2CCN(CC(=O)O)CCN(CC(=O)O)CCN(CC(=O)O)CC2)C(=O)N[C@@H](Cc2ccc(O)cc2)C(=O)N[C@@H](CCCNC(N)=O)C(=O)N[C@@H](CCCCN)C(=O)N[C@H](CCCCN)C(=O)N2CCC[C@H]2C(=O)N[C@@H](Cc2ccc(O)cc2)C(=O)N[C@@H](CCCNC(=N)N)C(=O)N[C@@H](CCCNC(N)=O)C(=O)N1)C(N)=O [copper-64 labelled]
tissue uptake (PET; tumour-bearing mice, blood; 100 µCi, 4 h): 0.35 ± 0.08 %ID/g

CCCC[C@@H]1NC(=O)[C@@H](NC(=O)[C@H](CCC(=O)O)NC(=O)CNC(=O)CN2CCN(CC(=O)O)CCN(CC(=O)O)CCN(CC(=O)O)CC2)CCCCNC(=O)C[C@@H](C(N)=O)NC(=O)[C@H](C(C)C)NC(=O)[C@@H]2CCCN2C(=O)[C@H](CCCNC(=N)N)NC(=O)CNC(=O)[C@H](Cc2c[nH]c3ccccc23)NC(=O)[C@H](CCCNC(=N)N)NC(=O)[C@@H](Cc2ccccc2)NC(=O)[C@H](Cc2c[nH]cn2)NC(=O)[C@H](CCC(=O)O)NC1=O [gallium-67 labelled]
tissue uptake (C57 mice, B16/F10 lung metastases, stomach; intravenous, 0.037 MBq/mouse, 2 h): 0.19 ± 0.03 %ID/g

CN1C(=O)[C@@H](Cc2ccc(O)c(I)c2)NC(=O)CNC(=O)[C@H](Cc2ccc3ccccc3c2)NC(=O)[C@H](CCCNC(=N)N)NC(=O)[C@H]1CCCNC(=O)c1ccc(CNC(=O)CN2CCN(CC(=O)O)CCN(CC(=O)O)CC2)cc1 [fluorine-18 labelled]
tissue uptake (SCID mice, Daudi lymphoma xenograft, tumour; intravenous, 1 h): 13.9 ± 0.8 %ID/g

CC(F)C(=O)NC[C@@H]1O[C@H](C(=O)NCCCC[C@@H]2NC(=O)[C@@H](Cc3ccc(O)cc3)NC(=O)[C@H](CC(=O)O)NC(=O)CNC(=O)[C@H](CCCNC(=N)N)NC2=O)[C@H](O)[C@H](O)[C@H]1O (stereo partly drawn) [fluorine-18 labelled]
tissue uptake (small-animal PET; female athymic nude mice, U-87 MG xenograft, liver; intravenous, 3.7 MBq, 60 min): 0.21 ± 0.03 %ID/g

CCCC[C@H](NC(=O)CNC(=O)CNC(=O)CN1CCN(CC(=O)O)CCN(CC(=O)O)CCN(CC(=O)O)CC1)C(=O)N[C@H]1CC(=O)NCCCC[C@@H](C(N)=O)NC(=O)[C@H](Cc2c[nH]c3ccccc23)NC(=O)[C@H](CCCNC(=N)N)NC(=O)[C@@H](Cc2ccccc2)NC(=O)[C@H](Cc2c[nH]cn2)NC1=O [copper-64 labelled]
tissue uptake (female C57 mice, B16/F1 melanoma, liver; intravenous, 0.037 MBq, 2 h): 10.3 ± 1.18 %ID/g

N=C(N)NCCC[C@@H]1NC(=O)[C@H](CCCCNC(=O)CON=C[C@H](F)[C@@H](O)[C@H](O)[C@H](O)CO)NC(=O)[C@@H](Cc2ccc(O)cc2)NC(=O)[C@H](CC(=O)O)NC(=O)CNC1=O [fluorine-18 labelled]
tissue uptake (nude mice U-87 MG tumour, kidney; intravenous, 1 h): 3.75 ± 1.42 %ID/g

CN1C(=O)[C@@H](Cc2ccc(O)c(I)c2)NC(=O)CNC(=O)[C@H](Cc2ccc3ccccc3c2)NC(=O)[C@H](CCCNC(=N)N)NC(=O)[C@H]1CCCNC(=O)c1ccc(CNC(=O)CN2CCN(CC(=O)O)CCN(CC(=O)O)CCN(CC(=O)O)CC2)cc1 [lutetium-177 labelled]
tissue uptake (item: 177Lu radioactivity; female CB-17 SCID mice, Daudi xenograft, liver; intravenous, 0.16 nmol per mouse, 6 h): 9.59 ± 0.69 %ID/g

CCCC[C@H](NC(=O)CN1CCC(NC(=O)CN2CCN(CC(=O)O)CCN(CC(=O)O)CCN(CC(=O)O)CC2)CC1)C(=O)N[C@H]1CC(=O)NCCCC[C@@H](C(N)=O)NC(=O)[C@H](Cc2c[nH]c3ccccc23)NC(=O)[C@H](CCCNC(=N)N)NC(=O)[C@@H](Cc2ccccc2)NC(=O)[C@H](Cc2c[nH]cn2)NC1=O [gallium-68 labelled]
tissue uptake (C57BL/6J mice male B16-F10 tumour, liver; 2 h post injection, unblocked): 0.7 %ID/g

O=C(NCCCN(CCCCN(CCCNC(=O)c1cccc(=O)n1[O-])C(=O)c1cccc(=O)n1[O-])C(=O)c1cccc(=O)n1[O-])c1cccc(=O)n1[O-].[89Zr+4]
tissue uptake (healthy athymic nude mice, gall bladder; intravenous, 1 h): 6.94 ± 3.38 %ID/g

CCCC[C@H](NC(=O)CNC(=O)CNC(=O)CN1CCN(CC(=O)O)CCN(CC(=O)O)CC1)C(=O)N[C@H]1CC(=O)NCCCC[C@@H](C(N)=O)NC(=O)[C@H](Cc2c[nH]c3ccccc23)NC(=O)[C@H](CCCNC(=N)N)NC(=O)[C@@H](Cc2ccccc2)NC(=O)[C@H](Cc2c[nH]cn2)NC1=O [gallium-67 labelled]
tissue uptake (female C57 mice, B16/F1 melanoma, muscle; intravenous, 0.037 MBq, 0.5 h): 0.73 ± 0.26 %ID/g

Repeated from above:
CC(F)C(=O)NC[C@@H]1O[C@H](C(=O)NCCCC[C@@H]2NC(=O)[C@@H](Cc3ccc(O)cc3)NC(=O)[C@H](CC(=O)O)NC(=O)CNC(=O)[C@H](CCCNC(=N)N)NC2=O)[C@H](O)[C@H](O)[C@H]1O (stereo partly drawn) [fluorine-18 labelled]
tissue uptake (small-animal PET; female athymic nude mice, U-87 MG xenograft, liver; intravenous, 3.7 MBq, 60 min): 0.21 ± 0.03 %ID/g

O=C([O-])CN1CCN(CC(=O)[O-])CCN(CC(=O)[O-])CCN(CC(=O)[O-])CC1.[64Cu+2]
tissue uptake (nude athymic mice, healthy, femur; intravenous, 24 h, 64Cu label): 0.27 %ID/g
